Published values gathered from unrelated publications.
Parts stem from different laboratories: compare values within a part only. Substitutions count along the parent as printed.

Set 1 — target: NFE2, bZIP domain (human); method: DHFR protein complementation; sample: yeast; reference: wild-type JUN-FOS pair; direction: higher = stronger binding; endpoint: binding fitness
Setting: single substitutions, most at no-binding floor
Starting sequence: JUN, bZIP domain (human); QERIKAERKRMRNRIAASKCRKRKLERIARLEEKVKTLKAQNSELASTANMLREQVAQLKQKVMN; partner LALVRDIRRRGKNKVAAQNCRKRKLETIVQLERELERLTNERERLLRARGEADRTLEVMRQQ
K39H: -1.45 natural log
Q55R: -1.5 natural log
E54I: -1.45 natural log
Q41I: -1.23 natural log
N42R: -1.48 natural log
Q41A: -1.4 natural log
A49H: -1.49 natural log

Set 2 — method: protein-binding microarray; molecule type: double-stranded DNA, one strand shown; sample: in vitro; concentration: 940 nM top; setting: 60-bp whole probe; together with: salmon DNA 0.4 mg/ml; reference: random background probes; direction: higher = stronger binding; endpoint: fitted relative affinity; shared flanks, not repeated: GCCTAGCAC … GTCTTGATTCGCTTGACGCTGCTG
Target: Interferon regulatory factor 5, full length, phosphomimetic (IRF5, Homo sapiens, UniProt Q13568-2, residues 1-514, S451D/S453D/S456D/S462D)
TTAGAACTGGGTTATCGATTAGTGCTA: 0.117 z-score
TTAGGACTGGGGTATCGCTTAGTGCTA: 0.617 z-score
GACGGACTGGGTATCGGGGCGTGCTAG: 0.504 z-score
TTAGCTTTCGGGTTTCGGTTAGTGCTA: 7.33 z-score
ACAGCTCACGCTTTGGAAAGGTGCTAG: -0.246 z-score
GACGGTCTCCGTCTCGGGACGTGCTAG: -0.104 z-score
AGACCTTGCTTTATGTGTAGGTGCTAG: -0.107 z-score
TACGGACTGGGTATCGGGACGTGCTAG: 0.663 z-score
GTTTTTTTCTATATGCAATGGTGCTAG: 1.55 z-score

Set 3 — target: CCNB3, cyclin fold, Cln2 fusion (human); method: yeast growth competition, sequencing; sample: yeast; setting: weak parent motif; reference: not given; direction: higher = stronger binding; endpoint: normalised enrichment score
Starting sequence: PKN2 docking peptide (human); VSAVQKLDFSDTM; partner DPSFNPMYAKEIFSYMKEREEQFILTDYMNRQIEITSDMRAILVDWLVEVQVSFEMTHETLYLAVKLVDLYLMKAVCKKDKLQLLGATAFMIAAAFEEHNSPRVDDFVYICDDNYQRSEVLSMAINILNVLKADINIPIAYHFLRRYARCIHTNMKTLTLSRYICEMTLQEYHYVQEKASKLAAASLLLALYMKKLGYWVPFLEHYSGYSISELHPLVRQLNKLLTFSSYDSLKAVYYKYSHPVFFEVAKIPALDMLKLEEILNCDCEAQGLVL
D8V: 0.378
A3W: 0.613
S2P: 0.13
F9G: 0.0751
V1Q: 0.412
D8R: 0.129
D11R: 0.27
A3L: 0.0885
L7N: 0.133
F9S: 0.521
M13N: 0.343
K6N: 0.611

Further values, each from its own experiment
PhoQ, residues 284 288 289 292 302 303 AEGLLW — fold induction (PhoP, residues 12 14 15 18 19 NQAHL (Escherichia coli, UniProt P23836); Sort-seq, measured: YFP reporter; E. coli; PhoQ-PhoP variant library, together with: 10 µM Mg2+; reference: high Mg2+ state, higher = stronger signaling): 2.14

For quick reference, copied from above (set 1):
Q41A: -1.4 natural log
N42R: -1.48 natural log
Q41I: -1.23 natural log
Q55R: -1.5 natural log
